Assay results pooled from the literature.
A part holds a random share of what one study measured.

Sample 1 — method: protein-binding microarray; form: double-stranded DNA, one strand shown; matrix: in vitro; concentration: 250 nM; notes: 60-bp whole probe; together with: salmon DNA 0.4 mg/ml; reference: random background probes; reading: higher = stronger binding; constant ends, left off below: GCCTAGCAC … GTCTTGATTCGCTTGACGCTGCTG
Target: Interferon regulatory factor 5, full length, phosphomimetic (IRF5, Homo sapiens, UniProt Q13568-2, residues 1-514, K96S/S451D/S453D/S456D/S462D)
With `GACGGTCTACTACTGCTGACGTGCTAG` the log fluorescence was -0.205 z-score.
The log fluorescence of `ATGCTTTACTCACTCGGAAAGTGCTAG` is reported as 0.0473 z-score.
`CTTGCTCTGTGCATAGGTCTGTGCTAG` has a log fluorescence of -0.586 z-score.
For `GACGGACCGCTACTGCTGACGTGCTAG`, the log fluorescence was -0.78 z-score.
The log fluorescence of `TACTTTCTTTTTTTCTTTTAGTGCTAG` is reported as 6.08 z-score.
The log fluorescence of `TTAGAACTGGGGTGTCGATTAGTGCTA` is reported as -0.204 z-score.
The log fluorescence of `TCATTTTTTTTTTTTACACTGTGCTAG` is reported as 1.1 z-score.
`TTAGATCTGGGGACTGGATTAGTGCTA` has a log fluorescence of -0.44 z-score.
The log fluorescence of `GACGGTATCGGTTTCGGTACGTGCTAG` is reported as 10.2 z-score.
The log fluorescence of `TCAGGACTGCTACTGCTTTAGTGCTAG` is reported as -0.402 z-score.

Sample 2 — method: universal PBM; form: double-stranded DNA, one strand shown; matrix: in vitro; concentration: not given; reading: higher = stronger binding
Target: Sal-like protein 4, full length isoform B (SALL4, Homo sapiens, UniProt Q9UJQ4-2, residues 1-616)
Notes: 8-mer, flanks averaged, mean of replicates
Construct (chain): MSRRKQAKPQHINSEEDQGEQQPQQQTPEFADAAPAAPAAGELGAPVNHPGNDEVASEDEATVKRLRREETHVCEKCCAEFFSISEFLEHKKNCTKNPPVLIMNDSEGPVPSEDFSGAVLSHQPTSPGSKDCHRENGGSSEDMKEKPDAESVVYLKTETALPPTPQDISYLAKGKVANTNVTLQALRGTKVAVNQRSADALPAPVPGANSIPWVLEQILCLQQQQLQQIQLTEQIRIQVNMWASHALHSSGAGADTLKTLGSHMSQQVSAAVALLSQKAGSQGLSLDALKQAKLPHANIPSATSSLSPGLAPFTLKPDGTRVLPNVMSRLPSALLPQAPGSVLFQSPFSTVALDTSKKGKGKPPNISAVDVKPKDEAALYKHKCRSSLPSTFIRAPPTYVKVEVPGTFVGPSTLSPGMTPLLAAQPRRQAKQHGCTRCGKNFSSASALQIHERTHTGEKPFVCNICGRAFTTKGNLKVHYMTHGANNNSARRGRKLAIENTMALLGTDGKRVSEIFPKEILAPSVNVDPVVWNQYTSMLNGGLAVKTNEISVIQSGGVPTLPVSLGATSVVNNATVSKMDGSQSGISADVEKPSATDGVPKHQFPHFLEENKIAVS
The E-score of `AGCGTTCA` is reported as -0.131.
`AGGACCAG` gave an E-score of -0.24.
With `GTGGCCAC` the E-score was -0.108.
The E-score of `AATCAGGC` is reported as -0.0617.
With `CGCCCAAC` the E-score was -0.234.
`CTCCCCTC` has an E-score of -0.301.

Sample 3 — method: RNAcompete; form: RNA; matrix: in vitro; concentration: 20 nM; notes: 7-mer, probes averaged, single round; reference: mean of 7-mers; reading: higher = stronger binding
Target: PABPC1L2, full length, GST fusion (mouse, UniProt A0ABA7IW68)
Target sequence (chain): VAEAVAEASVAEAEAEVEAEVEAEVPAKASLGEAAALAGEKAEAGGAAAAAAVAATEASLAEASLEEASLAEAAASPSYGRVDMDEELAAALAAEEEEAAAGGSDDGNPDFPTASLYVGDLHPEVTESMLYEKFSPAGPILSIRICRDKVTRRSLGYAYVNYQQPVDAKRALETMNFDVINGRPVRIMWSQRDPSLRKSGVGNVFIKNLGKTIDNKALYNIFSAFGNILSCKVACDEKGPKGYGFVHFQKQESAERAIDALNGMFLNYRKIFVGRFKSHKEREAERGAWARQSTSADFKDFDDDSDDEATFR
`CUAGAUU` gave a 7-mer Z-score of -0.0989.
`UGAGAAG` has a 7-mer Z-score of -0.0863.
With `GGUGAUG` the 7-mer Z-score was -0.0718.
`GACCCCA` gave a 7-mer Z-score of -0.146.
`UAGCUCC` has a 7-mer Z-score of -0.378.
For `GUUCUCG`, the 7-mer Z-score was -0.441.
`CUCGGCG` has a 7-mer Z-score of -0.228.
`CUGUUAA` gave a 7-mer Z-score of -0.242.

Single results of other studies
`PhoQ, residues 284 288 289 292 302 303 TLMATV` has a fold induction of 13.9 (PhoP, residues 12 14 15 18 19 NQFFI (Escherichia coli, UniProt P23836); Sort-seq, measured: YFP reporter; E. coli; PhoQ-PhoP variant library, together with: 10 µM Mg2+; reference: high Mg2+ state, higher = stronger signaling).

Repeated from above (sample 1):
For `GACGGACCGCTACTGCTGACGTGCTAG`, the log fluorescence was -0.78 z-score.
The log fluorescence of `TACTTTCTTTTTTTCTTTTAGTGCTAG` is reported as 6.08 z-score.
The log fluorescence of `TTAGAACTGGGGTGTCGATTAGTGCTA` is reported as -0.204 z-score.
